Published values from different studies.
Parts stem from different laboratories: compare values within a part only. Changes are numbered by the printed parent chain.
Sequence of UniProt Q9C5X0 (whole entry, looked up): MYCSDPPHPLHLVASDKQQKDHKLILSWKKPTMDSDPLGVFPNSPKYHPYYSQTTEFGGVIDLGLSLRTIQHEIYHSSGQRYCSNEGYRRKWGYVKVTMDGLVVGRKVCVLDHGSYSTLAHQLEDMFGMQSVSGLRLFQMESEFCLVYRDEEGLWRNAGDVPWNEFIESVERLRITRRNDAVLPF
Sequence of UniProt Q9C7I9 (whole entry, looked up): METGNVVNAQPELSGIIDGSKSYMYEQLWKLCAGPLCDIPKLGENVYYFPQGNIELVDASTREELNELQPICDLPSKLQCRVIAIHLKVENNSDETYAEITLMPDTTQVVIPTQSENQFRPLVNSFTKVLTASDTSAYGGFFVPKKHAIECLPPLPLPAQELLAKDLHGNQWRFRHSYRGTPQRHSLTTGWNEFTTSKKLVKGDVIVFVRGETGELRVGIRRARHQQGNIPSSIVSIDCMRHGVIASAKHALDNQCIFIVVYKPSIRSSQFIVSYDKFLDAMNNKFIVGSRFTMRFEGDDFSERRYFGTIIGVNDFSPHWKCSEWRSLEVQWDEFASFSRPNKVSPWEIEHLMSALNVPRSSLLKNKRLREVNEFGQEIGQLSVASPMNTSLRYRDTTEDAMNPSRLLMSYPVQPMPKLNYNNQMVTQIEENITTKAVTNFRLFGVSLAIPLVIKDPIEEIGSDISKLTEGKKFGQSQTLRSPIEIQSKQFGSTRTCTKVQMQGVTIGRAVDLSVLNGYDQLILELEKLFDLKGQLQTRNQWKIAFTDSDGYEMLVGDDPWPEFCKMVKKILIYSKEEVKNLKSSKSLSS
Sequence of UniProt P93024 (whole entry, looked up): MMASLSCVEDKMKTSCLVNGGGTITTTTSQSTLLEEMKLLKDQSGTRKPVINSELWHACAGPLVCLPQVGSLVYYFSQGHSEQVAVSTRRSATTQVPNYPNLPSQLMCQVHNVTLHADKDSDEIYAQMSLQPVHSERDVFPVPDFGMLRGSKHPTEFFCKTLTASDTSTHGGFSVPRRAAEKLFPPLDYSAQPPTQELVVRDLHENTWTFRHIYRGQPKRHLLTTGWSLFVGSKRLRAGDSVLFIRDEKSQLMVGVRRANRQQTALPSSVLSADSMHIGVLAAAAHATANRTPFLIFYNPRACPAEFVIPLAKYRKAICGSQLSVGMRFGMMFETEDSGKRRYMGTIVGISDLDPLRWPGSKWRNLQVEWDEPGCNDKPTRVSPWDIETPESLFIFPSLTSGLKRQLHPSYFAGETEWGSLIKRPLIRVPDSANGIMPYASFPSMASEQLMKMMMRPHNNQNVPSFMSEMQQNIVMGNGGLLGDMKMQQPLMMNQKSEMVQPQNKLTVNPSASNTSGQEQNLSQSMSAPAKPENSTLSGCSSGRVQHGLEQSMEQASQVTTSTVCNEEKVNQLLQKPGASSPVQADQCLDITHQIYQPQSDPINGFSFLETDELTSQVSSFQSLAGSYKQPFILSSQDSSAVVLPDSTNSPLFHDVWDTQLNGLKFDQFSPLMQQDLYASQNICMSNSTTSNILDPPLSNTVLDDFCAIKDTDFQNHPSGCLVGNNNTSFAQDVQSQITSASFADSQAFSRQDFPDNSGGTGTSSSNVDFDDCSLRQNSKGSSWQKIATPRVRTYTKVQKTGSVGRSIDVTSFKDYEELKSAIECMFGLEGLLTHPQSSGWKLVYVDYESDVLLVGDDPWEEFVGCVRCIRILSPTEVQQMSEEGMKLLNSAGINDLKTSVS

Sample 1
Molecule: B1 (IAA9)
Method: two-hybrid
Direction: higher = firmer interaction
Endpoint: positive tests
B1: IAA9 (Arabidopsis thaliana, UniProt Q38827); chain MSPEEELQSNVSVASSSPTSNCISRNTLGGLKEHNYLGLSDCSSVGSSTLSPLAEDDKATISLKATELTLGLPGSQSPARDTELNLLSPAKLDEKPFFPLLPSKDEICSSSQKNNASGNKRGFSDTMDQFAEAKSSVYTEKNWMFPEAAATQSVTKKDVPQNIPKGQSSTTNNSSSPPAAKAQIVGWPPVRSYRKNTLATTCKNSDEVDGRPGSGALFVKVSMDGAPYLRKVDLRSYTNYGELSSALEKMFTTFTLGQCGSNGAAGKDMLSETKLKDLLNGKDYVLTYEDKDGDWMLVGDVPWEMFIDVCKKLKIMKGCDAIGLAAAPRAMEKSKMRA
ARF20 484-590 (Arabidopsis thaliana, UniProt Q9C7I9); relative to: out of 2 tests: 0
ARF5 788-902 (Arabidopsis thaliana, UniProt P93024); relative to: out of 0 tests: 0
IAA34 (Arabidopsis thaliana, UniProt Q9C5X0); relative to: out of 2 tests: 2

Sample 2
Target: CCND3, cyclin fold, Cln2 fusion (human)
Method: yeast growth competition, sequencing
Medium: yeast
Notes: weak parent motif
Relative to: not given
Direction: higher = stronger binding
Endpoint: normalised enrichment score
Starting sequence: SLBP docking peptide (human); ARYKRKLLINDFG
AIYKRKLLINDFG [R2I]: 0.208
KRYKRKLLINDFG [A1K]: 0.121
ARYKRRLLINDFG [K6R]: 0.117
ARYLRKLLINDFG [K4L]: 0.157
ARYSRKLLINDFG [K4S]: 0.116
ARYKRFLLINDFG [K6F]: 0.0416
ARYKMKLLINDFG [R5M]: 0.167
AEYKRKLLINDFG [R2E]: 0.193

Mixed results
Histone H2A type 1-B/E (Homo sapiens, UniProt P04908)  interaction screen (H2BC21 (Homo sapiens, UniProt Q16778); cross-linking MS; hits only): cross-linked
KTRMEDYYL  binding (HLA class I histocompatibility antigen, A alpha chain, allele A*25:01 (Homo sapiens, UniProt P04439); peptide-MHC binding; peptide; concentration not given): inactive
SMC2 (Homo sapiens, UniProt O95347)  cross-linked residues (SMC4 (Homo sapiens, UniProt Q9NTJ3); cross-linking MS; cell fractions; together with: DHSO): E305 to D394
ERLIN1 (Homo sapiens, UniProt O75477)  interaction screen (ERLIN2 (Homo sapiens, UniProt O94905); cross-linking MS; hits only): cross-linked
LTN1 (Homo sapiens, UniProt O94822)  cross-linked residues (H1-10 (Homo sapiens, UniProt Q92522); cross-linking MS; cell fractions; together with: DSSO): S192 to K166

A few entries again (mixed results):
SMC2 (Homo sapiens, UniProt O95347)  cross-linked residues (SMC4 (Homo sapiens, UniProt Q9NTJ3); cross-linking MS; cell fractions; together with: DHSO): E305 to D394
ERLIN1 (Homo sapiens, UniProt O75477)  interaction screen (ERLIN2 (Homo sapiens, UniProt O94905); cross-linking MS; hits only): cross-linked
